Assay results gathered from unrelated publications.
Compare with care: the assays were run in different laboratories.
Target: Casein kinase I isoform epsilon (CSNK1E, Homo sapiens, UniProt P49674)

SMILES | read-out | action | technique | tested at | reference | endpoint | value
COc1c(Cl)cccc1Nc1c(-c2ccncc2C#C[C@@]2(C)CCCN2C(=O)/C=C/CN(C)C)[nH]c2c1C(=O)NCC2 | binding | – | competition with immobilised ligand | 3 µM | – | remaining binding | 60%
Cc1cc(NC(=O)[C@H](O)c2cc(F)cc(F)c2)ccc1-c1cnc(N)c(C(=O)NC(C)C)c1 | binding | – | competition with immobilised ligand | 1 µM | – | remaining binding | 83%
O=c1c(-c2ccc(Cl)c(CN3CCOCC3)c2)coc2cc(O)ccc12 | enzyme activity | inhibitor | – | 1 µM | – | remaining activity | 108%
NC(=O)[C@@H](O)C[C@H]1CCc2sc3ncnc(O[C@H]4CC[C@H](N5CCOCC5)CC4)c3c21 | enzyme activity | inhibitor | – | 10 µM | – | inhibition | 16%
CNC1C[S+]2CC[S+]3CC[S+](C1)[Ru-4]321([N]=C=S)[n]2c3ccc(OC)cc3c3c4c(c5cc(F)c[n+]1c5c32)C(=O)NC4=O (stereo not drawn) | – | – | KinomeScan | 0.1 µM | untreated | remaining binding | 100%
Nc1ncc2c(n1)-c1c([nH]c3ccc(C4=CCOCC4)cc13)CCC2 | binding | – | competition with immobilised ligand | 1 µM | – | remaining binding | 90%
CCN1CCN(Cc2ccc(C(=O)Nc3ccc(C)c(NCc4cnc5[nH]ccc5c4OC)c3)cc2C(F)(F)F)CC1 | binding | – | competition with immobilised ligand | 1 µM | – | remaining binding | 95%
Nc1ncc(-c2cc(-c3cnn(CC(F)(F)F)c3)ncc2F)nc1C(=O)NC1CNCC(F)C1 (stereo not drawn) | enzyme activity | – | – | 1 µM | DMSO control | remaining activity | 101%
Cc1cccc(O[C@H]2CCC[C@@H](C(C)CNCc3ccncc3)C2)c1 (relative stereo) | enzyme activity | inhibitor | – | 1 µM | – | inhibition | -7%
C=CC(=O)N1Cc2nc(-c3cc(-c4cc(Cl)cnc4Cl)c(F)cc3F)n(-c3ccncn3)c2C1 | enzyme activity | inhibitor | – | 1 µM | – | inhibition | 6%
O=C(Cc1ccc(OCc2ccccc2)cc1)NC1(C(=O)O)CCN(C(=O)c2ccc(-c3cccc(Cl)c3)cc2)CC1 | enzyme activity | inhibitor | – | 10 µM | – | activity vs control | 74%
COc1cc(Nc2nc(C)cc(-c3cnn4nc(OC)ccc34)n2)cc(C(F)(F)F)c1 | – | inhibitor | – | 1 µM | control | remaining activity | 80%

A few entries again:
SMILES | read-out | action | technique | tested at | reference | endpoint | value
O=C(Cc1ccc(OCc2ccccc2)cc1)NC1(C(=O)O)CCN(C(=O)c2ccc(-c3cccc(Cl)c3)cc2)CC1 | enzyme activity | inhibitor | – | 10 µM | – | activity vs control | 74%
